# Assay results gathered from unrelated publications.
# A part holds a random share of what one study measured.
# UniProt P00519, sequence (whole entry, unmodified, looked up): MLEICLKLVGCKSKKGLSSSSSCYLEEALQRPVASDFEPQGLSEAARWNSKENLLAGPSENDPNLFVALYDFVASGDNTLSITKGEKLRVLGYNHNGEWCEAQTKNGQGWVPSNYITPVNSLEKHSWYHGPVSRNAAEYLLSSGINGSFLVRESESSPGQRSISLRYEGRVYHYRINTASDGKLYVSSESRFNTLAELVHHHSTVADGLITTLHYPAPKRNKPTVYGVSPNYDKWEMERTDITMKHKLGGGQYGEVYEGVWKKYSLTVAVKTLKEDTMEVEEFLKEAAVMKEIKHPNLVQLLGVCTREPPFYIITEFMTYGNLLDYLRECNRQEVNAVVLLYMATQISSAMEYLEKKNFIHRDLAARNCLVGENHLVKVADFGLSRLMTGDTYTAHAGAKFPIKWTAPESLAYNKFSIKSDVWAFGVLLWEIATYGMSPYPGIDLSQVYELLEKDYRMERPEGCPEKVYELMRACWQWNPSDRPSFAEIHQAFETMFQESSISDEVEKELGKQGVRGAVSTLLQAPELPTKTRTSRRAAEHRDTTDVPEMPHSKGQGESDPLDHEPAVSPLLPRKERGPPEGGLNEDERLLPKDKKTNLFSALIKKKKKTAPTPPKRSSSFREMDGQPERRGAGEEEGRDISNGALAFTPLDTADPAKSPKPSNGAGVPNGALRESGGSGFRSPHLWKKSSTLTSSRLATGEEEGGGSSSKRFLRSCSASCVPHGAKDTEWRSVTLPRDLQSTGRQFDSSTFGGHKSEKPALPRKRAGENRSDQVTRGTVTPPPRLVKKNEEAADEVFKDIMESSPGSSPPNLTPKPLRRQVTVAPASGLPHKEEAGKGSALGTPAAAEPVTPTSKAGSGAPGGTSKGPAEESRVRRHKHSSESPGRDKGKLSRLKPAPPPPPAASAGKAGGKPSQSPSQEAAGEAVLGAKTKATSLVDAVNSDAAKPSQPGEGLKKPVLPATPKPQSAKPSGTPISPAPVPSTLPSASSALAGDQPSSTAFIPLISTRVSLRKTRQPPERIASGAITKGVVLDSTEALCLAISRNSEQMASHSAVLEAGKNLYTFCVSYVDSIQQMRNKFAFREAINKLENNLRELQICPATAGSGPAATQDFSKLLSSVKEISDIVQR
# UniProt Q13043, sequence (whole entry, looked up): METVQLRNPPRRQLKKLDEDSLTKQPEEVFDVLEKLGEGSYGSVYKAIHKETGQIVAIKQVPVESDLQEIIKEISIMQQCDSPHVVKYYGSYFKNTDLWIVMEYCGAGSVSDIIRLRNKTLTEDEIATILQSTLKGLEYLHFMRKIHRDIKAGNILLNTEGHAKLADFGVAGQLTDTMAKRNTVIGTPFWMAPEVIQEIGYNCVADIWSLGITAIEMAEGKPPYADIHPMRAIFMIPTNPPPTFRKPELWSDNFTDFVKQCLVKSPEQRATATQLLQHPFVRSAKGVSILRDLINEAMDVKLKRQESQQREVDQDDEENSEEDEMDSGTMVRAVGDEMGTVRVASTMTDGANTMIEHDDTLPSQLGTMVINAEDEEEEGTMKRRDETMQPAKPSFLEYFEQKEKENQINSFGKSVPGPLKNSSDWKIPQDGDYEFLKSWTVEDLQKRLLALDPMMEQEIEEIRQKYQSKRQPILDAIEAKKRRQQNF
# UniProt Q9Y2U5, sequence (whole entry, looked up): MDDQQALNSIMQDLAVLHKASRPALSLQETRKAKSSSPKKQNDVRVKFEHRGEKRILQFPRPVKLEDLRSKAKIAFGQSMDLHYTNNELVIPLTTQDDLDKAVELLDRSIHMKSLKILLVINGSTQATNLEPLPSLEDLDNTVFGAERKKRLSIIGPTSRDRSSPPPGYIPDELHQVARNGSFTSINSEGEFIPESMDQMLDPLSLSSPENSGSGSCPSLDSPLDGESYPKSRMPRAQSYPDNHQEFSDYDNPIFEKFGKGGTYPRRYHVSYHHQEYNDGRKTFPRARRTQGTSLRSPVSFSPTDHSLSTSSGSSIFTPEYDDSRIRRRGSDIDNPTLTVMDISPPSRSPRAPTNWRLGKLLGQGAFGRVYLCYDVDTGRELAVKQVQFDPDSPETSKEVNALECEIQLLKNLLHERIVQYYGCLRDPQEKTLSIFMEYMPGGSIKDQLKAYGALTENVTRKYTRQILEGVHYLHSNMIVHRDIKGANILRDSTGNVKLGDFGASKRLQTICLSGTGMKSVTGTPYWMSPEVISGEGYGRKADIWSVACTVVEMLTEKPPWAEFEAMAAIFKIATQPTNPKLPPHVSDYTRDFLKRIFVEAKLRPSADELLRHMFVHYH
# UniProt Q13131, sequence (whole entry, looked up): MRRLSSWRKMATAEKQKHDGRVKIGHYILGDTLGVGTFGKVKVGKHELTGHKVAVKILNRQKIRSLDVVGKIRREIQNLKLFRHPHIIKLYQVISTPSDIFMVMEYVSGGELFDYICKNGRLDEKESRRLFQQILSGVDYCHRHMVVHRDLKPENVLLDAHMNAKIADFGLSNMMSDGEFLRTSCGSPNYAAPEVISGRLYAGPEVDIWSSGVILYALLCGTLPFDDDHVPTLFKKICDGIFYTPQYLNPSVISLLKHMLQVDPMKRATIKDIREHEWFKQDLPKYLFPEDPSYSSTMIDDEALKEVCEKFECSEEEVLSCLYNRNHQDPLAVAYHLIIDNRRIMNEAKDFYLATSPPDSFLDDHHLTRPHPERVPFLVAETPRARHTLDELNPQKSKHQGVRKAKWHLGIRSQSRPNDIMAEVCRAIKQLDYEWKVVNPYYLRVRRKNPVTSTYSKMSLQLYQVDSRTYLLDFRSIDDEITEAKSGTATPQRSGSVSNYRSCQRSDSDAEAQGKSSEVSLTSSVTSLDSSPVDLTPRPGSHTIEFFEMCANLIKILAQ

# Block 1
# Target: cGMP-dependent protein kinase 1 (PRKG1, Homo sapiens, UniProt Q13976)
# Effect on: enzyme activity
# Mode: inhibitor
# Tested at: 0.5 µM
# Relative to: control
# Residues (Q13976 1-671): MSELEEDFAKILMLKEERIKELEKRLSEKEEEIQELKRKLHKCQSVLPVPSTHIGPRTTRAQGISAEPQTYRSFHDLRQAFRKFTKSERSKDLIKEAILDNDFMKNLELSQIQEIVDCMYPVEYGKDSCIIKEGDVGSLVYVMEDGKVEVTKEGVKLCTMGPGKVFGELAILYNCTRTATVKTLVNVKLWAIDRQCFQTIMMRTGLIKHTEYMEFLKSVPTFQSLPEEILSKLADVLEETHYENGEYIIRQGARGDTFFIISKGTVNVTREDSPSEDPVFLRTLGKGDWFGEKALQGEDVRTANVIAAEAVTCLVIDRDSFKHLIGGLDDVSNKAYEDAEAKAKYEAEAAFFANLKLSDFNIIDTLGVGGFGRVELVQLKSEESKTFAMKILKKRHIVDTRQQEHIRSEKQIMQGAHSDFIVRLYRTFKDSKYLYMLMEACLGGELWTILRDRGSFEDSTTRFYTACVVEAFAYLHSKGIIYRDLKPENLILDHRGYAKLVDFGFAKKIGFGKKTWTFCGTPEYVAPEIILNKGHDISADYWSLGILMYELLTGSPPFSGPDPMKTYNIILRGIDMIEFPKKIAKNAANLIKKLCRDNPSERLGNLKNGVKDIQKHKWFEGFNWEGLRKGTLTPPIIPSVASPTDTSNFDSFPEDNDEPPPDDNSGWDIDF
SMILES,remaining activity
Cc1nc(-c2ccccc2)c(-c2ccncc2)o1,90.5%
CC(C)[C@H](CO)Nc1nc(Nc2cc(N)cc(Cl)c2)c2ncn(C(C)C)c2n1,104%
O=C(CCCc1ccc(-c2ccccc2F)cc1)Nc1ccc(O)cc1,95.5%
COc1cc2ncnc(Nc3ccc(Oc4ccccc4)cc3)c2cc1OC,92.5%
Cc1cccc(-c2[nH]c(C(C)(C)C)nc2-c2ccc3c(c2)OCO3)n1,74.6%
Cn1c2ccccc2c2c3c(c4c5ccccc5n(CCC#N)c4c21)CNC3=O,80.2%
Nc1ccc2ncnc(NCCc3ccc(Oc4ccccc4)cc3)c2c1,93.1%
N#CC(C#N)=C(N)/C(C#N)=C/c1ccc(O)cc1,91.3%
O=C1NC(=O)C(c2cn(CCCn3ccnc3)c3ccccc23)=C1Nc1ccccc1,89.3%
CN(C)c1ccc(C=C2C(=O)Nc3ccccc32)cc1,99.7%
Cc1ccc(Nc2nccc(N(C)c3ccc4c(C)n(C)nc4c3)n2)cc1S(N)(=O)=O,95.1%
Nc1[nH]nc2nc3ccccc3nc12,97.7%
O=C1NC(=O)C(c2cn(CCCO)c3ncccc23)=C1c1cnccn1,131%
CCOC(=O)c1c(C)[nH]c(/C=C2\C(=O)Nc3ccccc32)c1C,78.3%
COc1ccc(C(=O)Nc2sc3c(c2C(N)=O)CCCC3)cc1OC,97%
Nc1ncnc2n[nH]c(Nc3ccc(F)cc3)c12,95.7%
CNC(=O)c1cc(Oc2ccc(NC(=O)Nc3ccc(Cl)c(C(F)(F)F)c3)cc2)ccn1,88.6%

# Block 2
# Cell line: HuT78
# Tested at: 2 µM
# Time: 48 h
# Relative to: untreated
SMILES,viability
COc1ncc(-c2ccc3nccc(-c4ccnnc4)c3c2)cc1NS(=O)(=O)c1ccc(F)cc1F,21.8%
Cc1ccc(F)c(NC(=O)Nc2ccc(-c3cccc4[nH]nc(N)c34)cc2)c1,143%
C#Cc1cccc(Nc2ncnc3cc(OCCOC)c(OCCO)cc23)c1,104%
Cc1cc2c(F)c(Oc3ncnn4cc(OC[C@@H](C)OC(=O)[C@H](C)N)c(C)c34)ccc2[nH]1,89.9%
CCN1CCN(Cc2ccc(-c3cc4c(N[C@H](C)c5ccccc5)ncnc4[nH]3)cc2)CC1,141%

# Block 3
# Compound: Cc1ccc(NC(=O)c2ccnc(C(F)(F)F)c2)cc1-c1cc(OCCO)nc(N2CCOCC2)c1
# Effect on: binding
# Method: competition with immobilised ligand
# Tested at: 1 µM
target,remaining binding [%]
"PRKAA1 (Homo sapiens, UniProt Q13131)",85
"STK4 (Homo sapiens, UniProt Q13043)",100
"MAP3K2 (Homo sapiens, UniProt Q9Y2U5)",75

# Block 4
# Host: mouse
# Matrix: microsomes or S9
# Tested at: 2 µM
# Time: 0.5 h
Compound,remaining compound
Brc1c[nH]nc1-c1nc2c3ccccc3ncn2n1,> 99%
O=C(c1ccccc1)c1c[nH]c(C(c2ccccc2)c2ccc(C(c3ccccc3)c3cc(C(=O)c4ccccc4)c[nH]3)o2)c1 (centres unmarked),32.5%
O=C1C2CN(Cc3cncs3)CCN2C(=O)N1c1ccccc1 (centres unmarked),62.5%
CC(=O)Nc1nc2ccc(-c3nn(Cc4cc5ccccc5nc4-c4ccccc4C)c4nc(N)ncc34)cc2s1,1.95%
COc1cccc(N(Cc2n[nH]c(=O)[nH]2)C(=O)CCC2CCCC2)c1,23.9%
COc1ccc(C(=O)N2CCC(c3ccc(OC)cc3)(c3ccc(OC)cc3)CC2)cc1,23.4%
CC(C)(C)OC(=O)N1CCCn2c1nn(-c1cc(-c3cccc(C#N)c3)ccc1N)c2=O,39%

# Block 5
# Cell line: HaCaT
# Tested at: 100 µM
# Time: 36 h
Compound,viability [%]
CCN(CC)CCOC(=O)c1ccc(N)cc1,90.5
NC(=O)c1cc[n+](CC2=C(C(=O)O)N3C(=O)[C@@H](NC(=O)[C@@H](c4ccccc4)S(=O)(=O)[O-])[C@H]3SC2)cc1,98.7
COc1ccc([C@@H]2CC(=O)c3c(O)cc(O[C@@H]4O[C@H](CO[C@@H]5O[C@@H](C)[C@H](O)[C@@H](O)[C@H]5O)[C@@H](O)[C@H](O)[C@H]4O)cc3O2)cc1O,83.3
COC(=O)C1=C(C)NC(C)=C(C(=O)OCC(C)C)C1c1ccccc1[N+](=O)[O-] (centres unmarked),6.39
CCN(CC)CCNC(C(=O)OCCC(C)C)c1ccccc1 (centres unmarked),67.8

# Other studies, line by line
SMILES,target,test,setting,how to read,quantity,result
O=C(Nc1cccnn1)N1CC(CC=Cc2cncc(Oc3ccc(C(F)(F)F)cn3)n2)C1,"Tyrosine-protein kinase ABL1 (ABL1, Homo sapiens, UniProt P00519, F317I)",KINOMEscan,"1 µM, F317I mutant, nonphosphorylated",relative to: control,remaining binding,53%
